Published values pooled from the literature.
Every numbered part comes from another study and shows a few of its results, in no order. Changes are numbered by the printed parent chain.

Study 1 — target: CREB5, bZIP domain (human); method: DHFR protein complementation; matrix: yeast; reference: wild-type JUN-FOS pair; direction: higher = stronger binding
Notes: single substitutions, most at no-binding floor
Parent: JUN, bZIP domain (human); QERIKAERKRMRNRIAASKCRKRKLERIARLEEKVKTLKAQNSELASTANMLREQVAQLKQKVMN; partner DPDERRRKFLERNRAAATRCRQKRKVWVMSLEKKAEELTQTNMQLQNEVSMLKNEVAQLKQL
`K36R` has a binding fitness of -0.221 natural log.
With `A46P` the binding fitness was -1.28 natural log.
For `A29V`, the binding fitness was -0.503 natural log.
`V35N` has a binding fitness of -1.18 natural log.
For `N42R`, the binding fitness was -0.745 natural log.
The binding fitness of `M51Q` is reported as -0.211 natural log.
The binding fitness of `S47Y` is reported as -0.406 natural log.
The binding fitness of `L38W` is reported as -1.45 natural log.
`K34S` gave a binding fitness of -0.454 natural log.
With `Q55P` the binding fitness was -1.36 natural log.
With `R53C` the binding fitness was -1.08 natural log.
`A40I` gave a binding fitness of -0.399 natural log.
With `L45E` the binding fitness was -1.39 natural log.
The binding fitness of `L31M` is reported as -0.5 natural log.
For `I28T`, the binding fitness was -0.496 natural log.
For `R53P`, the binding fitness was -1.36 natural log.
`A46K` has a binding fitness of -0.316 natural log.
The binding fitness of `S47P` is reported as -1.38 natural log.
`M51L` has a binding fitness of -0.233 natural log.
The binding fitness of `Q41W` is reported as -1.35 natural log.
With `T48V` the binding fitness was -0.341 natural log.
The binding fitness of `L52M` is reported as -1.01 natural log.
`T37F` gave a binding fitness of -0.216 natural log.
The binding fitness of `A49W` is reported as -1.09 natural log.
`E44Q` gave a binding fitness of -0.331 natural log.

Study 2 — method: universal PBM; form: double-stranded DNA, one strand shown; matrix: in vitro; concentration: not given; direction: higher = stronger binding
Target: Sal-like protein 4, full length isoform B (SALL4, Homo sapiens, UniProt Q9UJQ4-2, residues 1-616)
Notes: 8-mer, flanks averaged, mean of replicates
Construct (chain): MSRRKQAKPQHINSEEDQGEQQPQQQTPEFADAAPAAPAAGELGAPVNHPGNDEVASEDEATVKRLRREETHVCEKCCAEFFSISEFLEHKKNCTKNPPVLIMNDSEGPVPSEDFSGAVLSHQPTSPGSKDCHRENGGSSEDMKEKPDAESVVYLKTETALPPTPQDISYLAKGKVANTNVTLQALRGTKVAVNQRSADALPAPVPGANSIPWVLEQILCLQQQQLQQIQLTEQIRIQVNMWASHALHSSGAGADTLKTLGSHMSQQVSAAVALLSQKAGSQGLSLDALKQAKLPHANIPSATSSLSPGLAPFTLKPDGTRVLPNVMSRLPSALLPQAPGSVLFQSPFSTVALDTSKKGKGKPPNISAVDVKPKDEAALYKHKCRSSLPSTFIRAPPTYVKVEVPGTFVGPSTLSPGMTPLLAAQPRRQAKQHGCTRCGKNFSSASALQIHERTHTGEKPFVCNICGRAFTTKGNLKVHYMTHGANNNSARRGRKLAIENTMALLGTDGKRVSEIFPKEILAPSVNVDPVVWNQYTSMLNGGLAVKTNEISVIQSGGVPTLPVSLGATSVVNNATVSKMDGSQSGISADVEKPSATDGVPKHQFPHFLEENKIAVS
`AAAGACGC` gave an E-score of -0.0662.
With `ATGGGTGC` the E-score was 0.0491.
The E-score of `CTTTGTAC` is reported as 0.0911.
For `CTCAAGAC`, the E-score was -0.0965.
For `CGCGTCAA`, the E-score was -0.125.
`GCACTGGA` has an E-score of -0.255.
`CCGGTGGC` gave an E-score of -0.375.
With `CGCCAATC` the E-score was -0.14.
For `ATACGCTA`, the E-score was 0.0658.
The E-score of `GCATAAAC` is reported as 0.216.
The E-score of `GCTGCCAA` is reported as -0.219.
The E-score of `CTAAATGA` is reported as 0.161.
The E-score of `AAGAAGAG` is reported as 0.159.
`AATAATCA` has an E-score of 0.344.
`CACGGCAC` has an E-score of -0.18.
`AACACCCG` has an E-score of -0.203.
`GGCTCAGA` has an E-score of -0.166.
The E-score of `CAATGCTG` is reported as -0.00986.
`GTAATTAA` has an E-score of 0.307.
For `AGGGGGTG`, the E-score was -0.19.
With `CCACTTTC` the E-score was 0.017.
`CATATGCG` has an E-score of 0.14.
With `CATGTGCA` the E-score was 0.0701.
The E-score of `AGTCGTAA` is reported as 0.111.
With `ACTCGCTG` the E-score was -0.215.

Study 3 — method: RNA Bind-n-Seq; form: RNA; matrix: in vitro; concentration: 20 nM; notes: 6-mer, flanks averaged, single round; added: 150 mM LiCl; reference: input library; direction: higher = stronger binding
Target: TAR DNA-binding protein 43, full length, His tag (TARDBP, Homo sapiens, UniProt Q13148, residues 1-414)
For `CCACGA`, “6-mer enrichment (R)” read 0.834.
`AGCCGA` — result for “6-mer enrichment (R)”: 0.856.
Under “6-mer enrichment (R)”, `CGUGUC` is recorded as 0.979.
For `ACGCUA`, “6-mer enrichment (R)” read 0.839.
`UAGUUC`: “6-mer enrichment (R)” 0.883.
`ACUAAA` — result for “6-mer enrichment (R)”: 0.839.
`CGGUCC`: “6-mer enrichment (R)” 0.879.
`AUCCAC` — result for “6-mer enrichment (R)”: 0.86.
For `GUCGUG`, “6-mer enrichment (R)” read 1.14.
`ACUAUA`: “6-mer enrichment (R)” 0.91.
For `AUCGGC`, “6-mer enrichment (R)” read 0.861.
`UAGGUU` — result for “6-mer enrichment (R)”: 0.991.
Under “6-mer enrichment (R)”, `ACCCUA` is recorded as 0.933.
`AAGCUA` — result for “6-mer enrichment (R)”: 0.827.
`UCCCGU`: “6-mer enrichment (R)” 0.965.
`GUGGGU` — result for “6-mer enrichment (R)”: 1.54.
`UAAAAG` — result for “6-mer enrichment (R)”: 0.893.
Under “6-mer enrichment (R)”, `CCUUUC` is recorded as 0.991.
Under “6-mer enrichment (R)”, `GUCACA` is recorded as 0.864.
`UAUCCC`: “6-mer enrichment (R)” 1.

Study 4 — method: RNA Bind-n-Seq; form: RNA; matrix: in vitro; concentration: 365 nM; reference: no-protein control; direction: higher = stronger binding
Target: RNA binding protein fox-1 homolog 2, RRM domain, GST-SBP tag (RBFOX2, Homo sapiens, UniProt O43251-10, residues 100-194)
Notes: natural RNA segment, single round, ends assumed
Target sequence (chain): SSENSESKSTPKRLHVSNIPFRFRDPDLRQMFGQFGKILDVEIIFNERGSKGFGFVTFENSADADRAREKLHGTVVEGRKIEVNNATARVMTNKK
`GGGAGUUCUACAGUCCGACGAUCAGUCUUCGUGUUUUGCACCCUGUGCAUUGCUAUAUUCACAAGUACCAACUGUAGGAGUCAGAGGUGUUGGCAAAAGUAUGCAUGAAUGCUAACCUUUGCACAUACUCUGUUGGAAUUCUCGGGUGCCAA` — result for “RBNS enrichment (R)”: 0.991.
`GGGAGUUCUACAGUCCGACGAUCUUACCGUGGUCCUCCGUUGUGAGUGUUGCAGGGCUAUAGGAAGACAAAGCCUGGGGUACCCGCAUCUGGUUUGGAACCCUGAGUUUUGUUGUUCAGUCAGCAGCCCUAGUUGGAAUUCUCGGGUGCCAA` — result for “RBNS enrichment (R)”: 1.15.
For `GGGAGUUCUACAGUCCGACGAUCUUUUGUUGAUGAGUUGUAUACUGAUGCACACAUUACAGGAGAGAGCUGAACGUUCUCUCAGCCCAGAGCAGCAAACACAUGAAAGUCAGAAGUCUCUAAUAUAUCAUUUGUGGAAUUCUCGGGUGCCAA`, “RBNS enrichment (R)” read 0.245.
`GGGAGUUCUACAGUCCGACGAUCCUAUGUUUUCAAUUACCUAAAGACAUAGGAUAAUAGUUUUUUUUAAGUUAGAAUUUUACCUCAUAAAAUUUUUUGAGGUUUGAUGUAUGUCUCUGUCUUAUCAAUAAUGAUGGAAUUCUCGGGUGCCAA` — result for “RBNS enrichment (R)”: 2.26.
Under “RBNS enrichment (R)”, `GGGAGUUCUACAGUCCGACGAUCUAAAAUUAAAAUACUAUUGGAAGUGCUUUCAACUCAGCCACAUCUUAGCUAUUAGUUCUUUGUGUUGUCUUAUCAAAGUUUAAUGGAUACAGUUCCACAGUUGUUGAUGUUGGAAUUCUCGGGUGCCAA` is recorded as 0.481.
`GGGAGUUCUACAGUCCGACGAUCGUAAUCCCAAGUAUACAGGAAAUUGUGGGGUAGGCUGUCUCUCGUGAAUUGAGUUCUGCUGGGGCUAUAGAGCAUCGGGUCGGCAGCUGUCAUUCCCAGCUCUGUGACCUUGGAAUUCUCGGGUGCCAA`: “RBNS enrichment (R)” 0.617.
`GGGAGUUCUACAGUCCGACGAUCAUCACAUACCAGGUCAGGGAGGAUCUGUUCUUCCUCUACGUUUAUCCUGGCAUGUGCUAGGGUAAACGAAGGCAUAAUAAGCCAUGGCUGACCUCUGGAGCACCAGGUGCUGGAAUUCUCGGGUGCCAA`: “RBNS enrichment (R)” 0.22.
For `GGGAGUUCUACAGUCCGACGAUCUUACAUAACAUUAAUAUUGUAUCAGACCUCCUUAUGAAAAUGAGUAUGGAUGUGCACAGUAUGUUUGAUUUUUAUCCACAAGAAUGAAUCUGAUUCAGAAUGCUUUUCUCUGGAAUUCUCGGGUGCCAA`, “RBNS enrichment (R)” read 0.583.
`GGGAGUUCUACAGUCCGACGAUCAGGAAAGACUGAUACAGAACGAUCGAUACAGAAACCACGCUGCCGCCACCACACCAUCACCAUCGACAGAACAGUCCUUAAUCCAGAAACCUGAAAUGAAGGAAGAGGAGUGGAAUUCUCGGGUGCCAA` — result for “RBNS enrichment (R)”: 0.502.
For `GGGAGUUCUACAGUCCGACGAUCGAAUCAAUGAGUGAGAAUACUAGUACUGAUUCUUUACAAUAAUAAUAUCUUAAGAGUAUUGAUAUCUUUCAUUUUUUCAUCCAGCAGUCUAGUGCCCAGCUGCUGACAAUUGGAAUUCUCGGGUGCCAA`, “RBNS enrichment (R)” read 0.416.
Under “RBNS enrichment (R)”, `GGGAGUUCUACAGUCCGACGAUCAUUAUCUGAGGAAACUCAAUGGGUAUGAAGAUGAUCAAUUCUGUAAGCCUUGUGGCUGUGCUGUCAUGCCUAGGAUAGCAUUCAACAUAACUUUAACAAAAUUAAACAUUUGGAAUUCUCGGGUGCCAA` is recorded as 1.33.
`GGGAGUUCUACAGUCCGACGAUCUGAUUCAGAUGAAUUCAUGUAAAAGGAGAAAAGGAGAAAAGGACCUUUGAAAGAUGUGAAUGUAGAGACAAUUGCAGACCUUUUGGUUUCAUCUGUGUUCUGAAAUAUAAUGGAAUUCUCGGGUGCCAA` — result for “RBNS enrichment (R)”: 0.685.

Excerpt of the above (study 3):
For `CCACGA`, “6-mer enrichment (R)” read 0.834.
`AGCCGA` — result for “6-mer enrichment (R)”: 0.856.
Under “6-mer enrichment (R)”, `CGUGUC` is recorded as 0.979.
For `ACGCUA`, “6-mer enrichment (R)” read 0.839.
`UAGUUC`: “6-mer enrichment (R)” 0.883.
`ACUAAA` — result for “6-mer enrichment (R)”: 0.839.
`CGGUCC`: “6-mer enrichment (R)” 0.879.
